# Measured values collected from several papers.
# Every numbered part comes from another study and shows a few of its results, in no order. Substitutions count along the parent as printed.

# Series 1 — method: protein binding microarray; form: double-stranded DNA, one strand shown; sample: in vitro; concentration: not given; baseline: not given; direction: higher = stronger binding
# Target: Histone acetyltransferase KAT6A, winged helix 2, GST fusion (KAT6A, Homo sapiens, UniProt Q92794, residues 85-181)
# Notes: 8-mer, flanks averaged, mean of 2 arrays, mostly near background
# Construct (chain): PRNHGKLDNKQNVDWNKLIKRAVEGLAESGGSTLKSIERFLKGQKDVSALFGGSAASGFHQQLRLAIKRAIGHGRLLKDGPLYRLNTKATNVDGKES
Sequence,E-score
AGAACTAC,-0.042
CTGATGTA,-0.089
CAGTAAAA,0.168
GGAGGTGA,0.14
ACGAGGGA,-0.0797
AAGTTGCT,-0.0605
AAACTAAT,0.216
CCCGTGAC,-0.00103
ACCACTTC,-0.114
CACGTCGA,-0.125
GATGAGAC,0.00337
CTGGAGGA,0.00984
CAAAGCTC,0.0222
ATAACATC,0.0625
TACAAGTA,-0.147
CTGGGTAC,0.038
GGTTAGGA,-0.248
ATATATTC,0.0286
ACTTGTGC,-0.142
CAATTTGC,-0.0948
CGTACGAA,0.127
AGCCTCGC,0.038
CGACGGTC,-0.121

# Series 2 — target: CCNE1, cyclin fold, Cln2 fusion (human); method: yeast growth competition, sequencing; sample: yeast; notes: strong parent motif; baseline: not given; direction: higher = stronger binding
# Starting sequence: PKN2 docking peptide (human); VSAVRKLDFSDTM
Substitution,normalised enrichment score
VSAVRKPDFSDTM [L7P],0.381
VSAVRKLDFTDTM [S10T],5.43
VSAVRKLDFMDTM [S10M],5.03
VSAVRKLDFSCTM [D11C],5.28
VSAVRKLDFSDIM [T12I],5.85
VVAVRKLDFSDTM [S2V],3.44
VSAVRKLDKSDTM [F9K],-0.0707
VSALRKLDFSDTM [V4L],1.32
VSAVYKLDFSDTM [R5Y],0.46
VSAVRKLDFFDTM [S10F],4.22
VSAVDKLDFSDTM [R5D],0.198
VSAVRKLDFKDTM [S10K],4.5
VRAVRKLDFSDTM [S2R],5.56
VSAVRKLDFSDGM [T12G],5
VSAVRKLRFSDTM [D8R],2.59
VSAVRKLDFHDTM [S10H],4.74
VSAVRNLDFSDTM [K6N],1.81
VSKVRKLDFSDTM [A3K],0.555
VSAVRKLDFSVTM [D11V],5.11
VSIVRKLDFSDTM [A3I],3.29
VSAVRKLDFSDRM [T12R],5.4
VSAVRKLDFRDTM [S10R],4.8
VSAVRKLDTSDTM [F9T],-0.213
VSAVRKSDFSDTM [L7S],0.073
VSAVRKLDCSDTM [F9C],0.0732

# Series 3 — method: RNA Bind-n-Seq; form: RNA; sample: in vitro; concentration: not given; baseline: input RNA pool; direction: higher = stronger binding
# Target: RING finger protein unkempt homolog, zinc fingers 1-6, GST-SBP tag (UNK, Homo sapiens, UniProt Q9C0B0, residues 30-357)
# Notes: RNA with constant flanks, human-mouse chimeric sites, ends assumed
# Shared flanks, not repeated: GGGAGUUCUACAGUCCGACGAUC … CAACAGAGGAUUGAGCAUCA
# Target sequence (chain): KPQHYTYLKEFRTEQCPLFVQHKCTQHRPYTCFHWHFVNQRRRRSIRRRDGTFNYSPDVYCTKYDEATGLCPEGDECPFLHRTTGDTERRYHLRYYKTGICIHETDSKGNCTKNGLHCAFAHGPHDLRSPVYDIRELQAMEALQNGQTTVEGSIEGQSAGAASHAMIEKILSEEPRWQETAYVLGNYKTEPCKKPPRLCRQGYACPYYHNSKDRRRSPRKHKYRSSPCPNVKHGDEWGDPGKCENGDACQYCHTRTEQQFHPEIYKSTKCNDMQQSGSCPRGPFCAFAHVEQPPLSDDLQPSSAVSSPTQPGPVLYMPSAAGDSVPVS
Sequence,bound/input enrichment [ratio]
UUUGUAUUUAUGCUAAGCACGCGUGCUGGUGGUCUGGGCAUCAAUCUUGCAACUGCUGAUGUAGUCAUUUUAUAUGACUCAGAUUGGAAUCCCCAAGUUGAUCUUCAGGCUAUGGACCGU,0.128
UGGCGCCUCCCAUUUUUACUCGUGUUUUUAAGUGUAUUUUUAUAAGAUACAUGUAUUUACAAUUGAGCUUUUGUUACAUAAUGCUGAAAACAUCUCUGAGAUUAUGAAAAAUGUUUCAAU,0.103
ACACAAUAUGAGACCAACAGCAUGGACUUCAAAGUCGGGGCGGAUGGGACAGUCUUCGCCACCCGGGAGCUGCAGGUCCCCUCCGAGCAGGUGGCGUUCACGGUGACUGCAUGGGACAGC,0.249
CAGUCCCCGUGUCCCAGGGGACAAUGUUGUGAACAAAUCGAAGACAUGGACCCUCUAUUGUAGUUCUUGAUUCUCGAAAUGUGCUAUUAUUGUUUGUCUUUUUUUUUUUUUUUUUAAAGA,1.15
ACUCAGAGAUUAUAUUCCCAAAGUGCUGGGAGUAAAGUCUGAUAUUACACACCUAACUUGAUGGAUAUAUAUUUUUUUUAAUAUGAAUCUUCCUGUUCGUCCAGGGAAGAAAGAUUUGUU,1.51
CUGGCCUGGCCCUCCCCAGGGGCCUCCUUUCGUAUAGUAACUGUCAGUGCUACGGAUACUUUCAGCUGCAACUCCCUACUGGGUGGGGCACCCAUUUCAGGCAGAAGGUUUUGGUACCCU,0.367
AUGGAGAAGGAUUCUCUGCCCCGCUUUGUGCGCUCUGAGUUUUAUCAGGAGCUAAUCAAGUAGUAAUCUGGUCAGGCUUCCAAAAGUUGCCCUGUGAGUUGAGUUACAUCCUUUGUAGCA,0.263
CUGUGACCACAAGAUCCUACCUGAGUGGCAGCUGAAGUUGACUCCCUCCCCUUCCCUGAACCCCCCCCCACUGCCCCCCCAUCCCCCAGUGUCGGCUGAGAUGUUGCCUCUGCACGGUUC,1.32
GCUGGAUCUUCUAAGUACCAGUGGGACAUUAUGAAAUCCCUUGGGCUCUCUGAUGACGAGAUAGUAAAGUUUUCUGAAGCAGAGCACUGGCUUGAUUAUUUCCCACCACUGGCCGUUCAG,0.175
AGAAUCUGUGACUGGCUUUACUUAAUUGGUCAUUGAUAGCUUAACAAACAUGGAGAUAAGAUUAGAAAUCUUGACAUCAACAGGUAUUAAGCAGAAAAAACCCUGGCCACGUGUCUCCUG,0.14
UGACAAGGGCACUGCAGGGCCAUGCCUUUCCUUGACAUACAGAAAAAGCUGGGCAUCAGCCUGGACCGGCACUUUAUGUUCCUAAGCGCAGAACAGCCCUAUAAGAACGCCGCUCGGUGC,0.061

# Other studies, line by line
Substance,target,test,system,conditions,scale,endpoint,value
"PhoQ, residues 284 288 289 292 302 303 ASSHFY","PhoP, residues 12 14 15 18 19 NHFIF (Escherichia coli, UniProt P23836)","Sort-seq, measured: YFP reporter",E. coli,"PhoQ-PhoP variant library, together with: 10 µM Mg2+","baseline: high Mg2+ state, higher = stronger signaling",fold induction,15.8

# For quick reference, copied from above (series 2):
Substitution,normalised enrichment score
VSAVRKLDFSCTM [D11C],5.28
VSAVRKLDFSDIM [T12I],5.85
VVAVRKLDFSDTM [S2V],3.44
VSAVRKLDKSDTM [F9K],-0.0707
VSALRKLDFSDTM [V4L],1.32
VSAVYKLDFSDTM [R5Y],0.46
VSAVRKLDFFDTM [S10F],4.22
